Assay results gathered from unrelated publications.
Each line is one published result; not all experiments were run side by side.
Cell line: HEK293

CC(=O)[C@@H]1CC[C@]2(CO)CC[C@]3(C)[C@H](CC[C@@H]4[C@@]5(C)CCCNC(C)(C)[C@@H]5CC[C@]43C)[C@@H]12 has a CC50 of over 20 µM (cell growth or viability, resazurin; 20 h).
For NCCc1ccc(-c2nc3cc(OCCF)ccc3n3cccc23)cc1, the LD50 was 5 to 33 µM (CellTiter-Glo; 48 h).
The CC50 of O=C(c1ccccc1)N1CCC2(CC1)OOC1(CCCC1)OO2 is reported as over 100 µg/mL (cell growth or viability, MTT; 72 h).
C1N2CN3CN1CP(C2)C3.CC(C)OC(=O)C(n1cccn1)n1cccn1.F[P-](F)(F)(F)(F)F.[Cu+] gave an IC50 of over 50 µM (cell growth or viability, MTT).
C=C(C)[C@@H]1CC[C@]2(CO)CC[C@]3(C)[C@H](CC[C@@H]4[C@@]5(C)CCCNC(C)(C)[C@@H]5CC[C@]43C)[C@@H]12 gave a CC50 of over 20 µM (cell growth or viability, resazurin; 20 h).
For CC(C)C[C@H](NC(=O)[C@H](C)NC(=O)CNC(=O)[C@@H](NC(=O)[C@@H](NC(=O)[C@H](CCCCN)NC(=O)[C@H](CCCCN)NC(=O)[C@H](CC(C)C)NC(=O)[C@H](CC(C)C)NC(=O)[C@H](CCCCN)NC(=O)[C@H](CC(C)C)NC(=O)[C@H](CC(C)C)NC(=O)[C@@H](N)CCCCN)C(C)C)C(C)C)C(=O)NCC(N)=O, the CC50 was over 21 µM (cytotoxicity).
C=C(C)[C@@H]1CC[C@]2(COS(=O)(=O)c3ccc(C)cc3)CC[C@]3(C)[C@H](CC[C@@H]4[C@@]5(C)CCCNC(C)(C)[C@@H]5CC[C@]43C)[C@@H]12 gave a CC50 of at most 0.125 µM (cell growth or viability, resazurin; 20 h).
For CN1C(=O)[C@@H]2NC(=O)[C@@H]3NC(=O)[C@@H](c4ccc(O)cc4)NC(=O)[C@H](NC(=O)C(NCc4cccc(O)c4)c4ccc(O)cc4)Cc4c[nH]c5cc(ccc45)-c4cc3cc(c4O)Oc3ccc(cc3)C[C@H]1C(=O)N[C@@H](C(=O)O)c1ccc(O)c(c1)Oc1ccc2cc1 (stereo partly drawn), “concentration without cytotoxicity” read over 256 µg/mL (cell viability, CellTiter-Glo; 48 h).
With COc1ccc2cc1Oc1cc3c(cc1OC)CCN(C)C3Cc1ccc(cc1)Oc1c(O)c(OC)cc3c1C(C2)N(C)CC3 (stereo not drawn) the CC50 was 37.3 µM (cell growth or viability, MTT; 24 h).
For CN1C(=O)[C@@H]2NC(=O)[C@@H]3NC(=O)[C@@H](c4ccc(O)cc4)NC(=O)[C@H](NC(=O)C(NC(=O)CCCCCN)c4ccc(O)cc4)Cc4c[nH]c5cc(ccc45)-c4cc3cc(c4O)Oc3ccc(cc3)C[C@H]1C(=O)N[C@@H](C(=O)O)c1ccc(O)c(c1)Oc1ccc2cc1 (stereo partly drawn), “concentration without cytotoxicity” read over 256 µg/mL (cell viability, CellTiter-Glo; 48 h).
The IC50 of Cc1cc(C)n(C(C(=O)OC(C)C)n2nc(C)cc2C)n1.F[P-](F)(F)(F)(F)F.[Cu+].c1ccc(P(c2ccccc2)c2ccccc2)cc1 is reported as 7.2 µM (cell growth or viability, MTT).
With CC[C@H](C)[C@H](NC(=O)[C@H](CCCNC(=N)N)NC(=O)[C@H](Cc1ccccc1)NC(=O)[C@H](CC(C)C)NC(=O)[C@H](CCCCN)NC(=O)[C@H](CO)NC(=O)[C@@H](NC(=O)[C@H](CC(C)C)NC(=O)[C@H](CCCCN)NC(=O)[C@H](C)NC(=O)[C@H](CC(N)=O)NC(=O)[C@H](CCCNC(=N)N)NC(=O)[C@H](Cc1ccc(O)cc1)NC(=O)[C@H](C)NC(=O)[C@@H](NC(=O)[C@H](CCCCN)NC(=O)[C@H](CC(N)=O)NC(=O)[C@H](CCCCN)NC(=O)[C@H](CC(C)C)NC(=O)[C@H](CO)NC(=O)[C@H](CC(C)C)NC(=O)[C@H](C)NC(=O)[C@H](C)NC(=O)[C@H](CO)NC(=O)[C@@H](NC(=O)[C@@H](NC(=O)[C@H](Cc1c[nH]c2ccccc12)NC(=O)[C@@H](NC(=O)[C@H](CO)NC(=O)[C@@H](NC(=O)[C@@H](N)CC(C)C)C(C)C)C(C)C)[C@@H](C)CC)[C@@H](C)CC)C(C)C)C(C)C)C(=O)N[C@@H](C)C(=O)N[C@@H](CC(C)C)C(=O)O the cell death was 2.5 to 7% (MTT; 2 to 16 µg/mL, 24 h).
CCCCc1ccc(-c2nc(C)c(C(C)=NNC(=N)N)s2)cc1: cytotoxicity “toxic” (MTS; 40 µg/mL).
C[C@@](O)(C(F)F)[C@H](NC(=O)c1ccc(C#CC#CC2CC2)cc1)C(=O)NO gave a selectivity ratio of over 100 (relative to: LD50 over MIC90).
Under “concentration without cytotoxicity”, CN1C(=O)[C@@H]2NC(=O)[C@@H]3NC(=O)[C@@H](c4ccc(O)cc4)NC(=O)[C@H](NC(=O)C(N)c4ccc(O)cc4)Cc4c[nH]c5cc(ccc45)-c4cc3cc(c4O)Oc3ccc(cc3)C[C@H]1C(=O)N[C@@H](C(=O)O)c1ccc(O)c(c1)Oc1ccc2cc1 (stereo partly drawn) is recorded as over 256 µg/mL (cell viability, CellTiter-Glo; 48 h).
CC[C@H](C)[C@H](NC(=O)[C@H](CCCNC(=N)N)NC(=O)[C@H](CC(C)C)NC(=O)[C@H](CC(C)C)NC(=O)[C@H](C)NC(=O)[C@@H](NC(=O)[C@H](CCCCN)NC(=O)[C@H](CCCCN)NC(=O)[C@H](C)NC(=O)[C@@H](NC(=O)[C@H](Cc1c[nH]c2ccccc12)NC(=O)[C@@H](NC(=O)[C@H](Cc1ccc(O)cc1)NC(=O)[C@H](Cc1ccccc1)NC(=O)[C@H](CC(=O)O)NC(=O)[C@H](Cc1ccc(O)cc1)NC(=O)[C@@H](NC(=O)[C@H](CC(C)C)NC(=O)[C@H](CO)NC(=O)[C@H](C)NC(=O)[C@H](C)NC(=O)[C@@H](NC(=O)[C@@H](NC(=O)[C@@H](N)CC(C)C)[C@@H](C)CC)C(C)C)C(C)C)[C@@H](C)O)[C@@H](C)CC)C(C)C)C(=O)N[C@@H](C)C(=O)N[C@@H](CCCCN)C(=O)N[C@@H](CCCCN)C(=O)N[C@H](C(=O)N[C@@H](CC(C)C)C(=O)N[C@@H](Cc1ccc(O)cc1)C(=O)N[C@@H](CC(C)C)C(=O)N[C@@H](C)C(=O)N[C@@H](CCCNC(=N)N)C(=O)N[C@@H](CC(N)=O)C(=O)N[C@@H](C)C(=O)O)C(C)C gave a cytotoxicity of under 6% (MTT; 1 to 4 µM).
CCCCCCNC(C(=O)N[C@@H]1Cc2c[nH]c3cc(ccc23)-c2cc3cc(c2O)Oc2ccc(cc2)C[C@H]2C(=O)N[C@@H](C(=O)O)c4ccc(O)c(c4)Oc4ccc(cc4)[C@@H](NC(=O)[C@@H]3NC(=O)[C@@H](c3ccc(O)cc3)NC1=O)C(=O)N2C)c1ccc(O)cc1 (stereo partly drawn): “concentration without cytotoxicity” over 256 µg/mL (cell viability, CellTiter-Glo; 48 h).
CCCC1(CC)OOC2(CCN(C(=O)c3ccccc3)CC2)OO1 has a CC50 of over 100 µg/mL (cell growth or viability, MTT; 72 h).

A few entries again:
Under “concentration without cytotoxicity”, CN1C(=O)[C@@H]2NC(=O)[C@@H]3NC(=O)[C@@H](c4ccc(O)cc4)NC(=O)[C@H](NC(=O)C(N)c4ccc(O)cc4)Cc4c[nH]c5cc(ccc45)-c4cc3cc(c4O)Oc3ccc(cc3)C[C@H]1C(=O)N[C@@H](C(=O)O)c1ccc(O)c(c1)Oc1ccc2cc1 (stereo partly drawn) is recorded as over 256 µg/mL (cell viability, CellTiter-Glo; 48 h).
CCCCCCNC(C(=O)N[C@@H]1Cc2c[nH]c3cc(ccc23)-c2cc3cc(c2O)Oc2ccc(cc2)C[C@H]2C(=O)N[C@@H](C(=O)O)c4ccc(O)c(c4)Oc4ccc(cc4)[C@@H](NC(=O)[C@@H]3NC(=O)[C@@H](c3ccc(O)cc3)NC1=O)C(=O)N2C)c1ccc(O)cc1 (stereo partly drawn): “concentration without cytotoxicity” over 256 µg/mL (cell viability, CellTiter-Glo; 48 h).
CC[C@H](C)[C@H](NC(=O)[C@H](CCCNC(=N)N)NC(=O)[C@H](CC(C)C)NC(=O)[C@H](CC(C)C)NC(=O)[C@H](C)NC(=O)[C@@H](NC(=O)[C@H](CCCCN)NC(=O)[C@H](CCCCN)NC(=O)[C@H](C)NC(=O)[C@@H](NC(=O)[C@H](Cc1c[nH]c2ccccc12)NC(=O)[C@@H](NC(=O)[C@H](Cc1ccc(O)cc1)NC(=O)[C@H](Cc1ccccc1)NC(=O)[C@H](CC(=O)O)NC(=O)[C@H](Cc1ccc(O)cc1)NC(=O)[C@@H](NC(=O)[C@H](CC(C)C)NC(=O)[C@H](CO)NC(=O)[C@H](C)NC(=O)[C@H](C)NC(=O)[C@@H](NC(=O)[C@@H](NC(=O)[C@@H](N)CC(C)C)[C@@H](C)CC)C(C)C)C(C)C)[C@@H](C)O)[C@@H](C)CC)C(C)C)C(=O)N[C@@H](C)C(=O)N[C@@H](CCCCN)C(=O)N[C@@H](CCCCN)C(=O)N[C@H](C(=O)N[C@@H](CC(C)C)C(=O)N[C@@H](Cc1ccc(O)cc1)C(=O)N[C@@H](CC(C)C)C(=O)N[C@@H](C)C(=O)N[C@@H](CCCNC(=N)N)C(=O)N[C@@H](CC(N)=O)C(=O)N[C@@H](C)C(=O)O)C(C)C gave a cytotoxicity of under 6% (MTT; 1 to 4 µM).
